# Experimental data gathered from unrelated publications.
# Protocols differ between the studies behind these lines.
Structure (SMILES),test,system,setting,measurement,result
O=C1Nc2cc3[nH]nc(-c4ccncc4)c3cc2CN1Cc1ccccc1,CTCAE v4.03,"human, relapsed or refractory advanced solid tumours","intravenous, 3.6 mg/kg",patients with photopsia,0%
C=CC(=O)Nc1cc(Nc2nccc(Nc3cc(Cl)c(F)cc3C(C)(C)O)n2)c(OC)cc1N1CC[C@@H](N(C)C)C1,,human patients,"oral, 50 mg, treatment-emergent adverse events",patients with nausea,16.7%
C[C@@H]1OC(=O)NN=C1c1ccc(-c2ccc(F)cc2)c(C(F)(F)F)c1,"phase I trial, measured: alkaline phosphatase increased",human patients,"20 mg load, 1 mg daily, all grades",patients with TEAE,50%
N[C@@H]1c2ccccc2OC12CCN(c1cnc3c(N4CCCc5ncccc54)n[nH]c3n1)CC2,measured: constipation,human advanced or metastatic solid tumours,"oral, dose not given, phase Ia all doses",patients with adverse event,25%
C[C@]1(O)C[C@@](N)(c2ccc(-c3nc4n(c3-c3ccccc3)COc3ccncc3-4)cc2)C1,,"human, advanced or metastatic solid tumours","24 mg intermittent, phase I dose escalation",patients with Anemia TEAE,0%
CNC(=O)c1cc(Oc2ccc(NC(=O)Nc3cc(C(C)(C)C)nn3-c3ccc4ncccc4c3)c(F)c2)ccn1,,"human, trial","oral, dose not given, all doses",patients with related serious Dysarthria AE,2%
CN[C@@H](C)C(=O)N[C@H]1CN(S(=O)(=O)c2cccc(S(=O)(=O)N3CC[C@H]4CC[C@@H](C(=O)NC(c5ccccc5)c5ccccc5)N4C(=O)[C@@H](NC(=O)[C@H](C)NC)C3)c2)CC[C@H]2CC[C@@H](C(=O)NC(c3ccccc3)c3ccccc3)N2C1=O,,"human, advanced solid tumours","intravenous, 30 mg weekly, CTCAE version 4.0",patients with any TRAE,33.3%
C=CCNc1c(O)cc2c(O)c1C[C@@H](C)C[C@H](OC)[C@H](O)[C@@H](C)/C=C(\C)[C@H](OC(N)=O)[C@@H](OC)/C=C\C=C(/C)C(=O)N2,,human unresectable metastatic GIST or sarcoma,"intravenous, dose not given, treatment-emergent, all doses",patients with back pain,22%
Cn1cncc1-c1c(F)cncc1NC(=O)c1c(N)nn2cc(F)cnc12,,human patients,"oral, 180 mg once daily, 2 weeks on 1 week off",patients grade ≥3 Anemia,0%
Cn1nc(NS(C)(=O)=O)c2c(Cl)ccc(-n3c([C@H](Cc4cc(F)cc(F)c4)NC(=O)Cn4nc(C(F)F)c5c4C(F)(F)[C@@H]4C[C@H]54)nc4nc(OCCC(F)(F)F)ccc4c3=O)c21,measured: LDL cholesterol grade 2 increase,human,"200 mg once daily, powder in bottle",patients with laboratory abnormality,17%
Cc1cn([C@H]2O[C@@H](CO[P@@](=O)(N[C@@H](C)C(=O)OC(C)C)Oc3ccccc3)[C@H](O)[C@H]2F)c(=O)[nH]c1=O,measured: blood CPK increased,human,25 mg,patients with TEAE,0%
COc1ncnn2ccc(-c3cnc4nc(C)n(Cc5nnc([C@@H](C)F)o5)c4c3)c12,,human,"oral, dose not given, grade 3",patients with taste disorder,0%
COc1ccc(-c2c(-c3ccc(C#N)c(F)c3)nc(N3CCC(N)CC3)n(C)c2=O)cc1F,measured: conjunctival hemorrhage,human patients,"oral, dose not given, dose escalation",patients with TRAE any grade,4%
CN(C)C(=O)c1cc2cnc(Nc3ccc(N4CCNCC4)cn3)nc2n1C1CCCC1,measured: interstitial lung disease or pneumonitis,"human, HR+/HER2− advanced breast cancer","oral, dose not given, grade 3, CTCAE v4.03",patients with adverse event,0%
